Results of several laboratories.
Each numbered part is a random draw from the data of one study; scales do not carry over between parts. Values joined by “and” are separate records of one study, mostly repeats; a detail may differ.
Chain of UniProt Q86UE8 (whole entry, looked up): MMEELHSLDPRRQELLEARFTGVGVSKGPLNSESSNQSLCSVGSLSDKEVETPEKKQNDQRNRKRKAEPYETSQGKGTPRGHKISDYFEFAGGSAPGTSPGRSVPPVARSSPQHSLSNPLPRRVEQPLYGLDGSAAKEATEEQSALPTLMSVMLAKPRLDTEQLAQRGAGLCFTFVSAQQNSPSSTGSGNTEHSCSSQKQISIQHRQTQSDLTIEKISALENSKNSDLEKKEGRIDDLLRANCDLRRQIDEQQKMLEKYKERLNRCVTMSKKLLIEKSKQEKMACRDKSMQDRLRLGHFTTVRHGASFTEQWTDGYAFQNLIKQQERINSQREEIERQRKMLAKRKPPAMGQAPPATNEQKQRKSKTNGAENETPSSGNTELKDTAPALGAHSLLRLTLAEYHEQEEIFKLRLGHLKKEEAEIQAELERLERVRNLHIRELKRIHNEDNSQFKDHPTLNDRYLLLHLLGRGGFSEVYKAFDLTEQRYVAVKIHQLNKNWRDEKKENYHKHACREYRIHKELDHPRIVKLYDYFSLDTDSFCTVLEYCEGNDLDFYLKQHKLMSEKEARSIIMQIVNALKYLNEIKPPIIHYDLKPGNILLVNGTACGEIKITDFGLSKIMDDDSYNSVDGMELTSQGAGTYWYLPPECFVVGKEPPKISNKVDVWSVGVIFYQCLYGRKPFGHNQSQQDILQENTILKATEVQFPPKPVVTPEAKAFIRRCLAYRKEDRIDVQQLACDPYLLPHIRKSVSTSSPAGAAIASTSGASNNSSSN
Chain of UniProt Q8WU08 (whole entry, looked up): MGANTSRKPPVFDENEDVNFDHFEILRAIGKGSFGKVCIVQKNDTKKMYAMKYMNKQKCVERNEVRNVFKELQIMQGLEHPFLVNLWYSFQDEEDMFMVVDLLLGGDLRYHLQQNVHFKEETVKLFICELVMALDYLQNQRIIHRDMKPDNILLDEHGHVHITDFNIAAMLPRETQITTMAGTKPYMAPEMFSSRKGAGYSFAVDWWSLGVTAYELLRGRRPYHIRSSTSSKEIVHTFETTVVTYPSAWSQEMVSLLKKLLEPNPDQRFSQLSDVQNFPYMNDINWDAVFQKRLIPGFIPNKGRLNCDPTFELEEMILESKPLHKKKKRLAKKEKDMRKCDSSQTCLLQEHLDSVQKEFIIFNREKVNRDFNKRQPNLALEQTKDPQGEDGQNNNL
Chain of UniProt P45983 (whole entry, looked up): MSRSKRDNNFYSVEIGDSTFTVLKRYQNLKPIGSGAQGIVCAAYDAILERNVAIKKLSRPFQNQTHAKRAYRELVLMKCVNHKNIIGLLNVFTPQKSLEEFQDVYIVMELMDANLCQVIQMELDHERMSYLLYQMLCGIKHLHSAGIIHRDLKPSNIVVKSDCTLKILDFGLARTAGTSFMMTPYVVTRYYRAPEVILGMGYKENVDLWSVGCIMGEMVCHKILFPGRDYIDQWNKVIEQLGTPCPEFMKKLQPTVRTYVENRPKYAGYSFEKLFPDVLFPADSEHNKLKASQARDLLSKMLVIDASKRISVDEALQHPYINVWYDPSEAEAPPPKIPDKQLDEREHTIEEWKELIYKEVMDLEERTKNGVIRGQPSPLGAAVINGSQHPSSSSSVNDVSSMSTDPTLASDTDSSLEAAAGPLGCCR
Chain of UniProt P00519 (whole entry, unmodified, looked up): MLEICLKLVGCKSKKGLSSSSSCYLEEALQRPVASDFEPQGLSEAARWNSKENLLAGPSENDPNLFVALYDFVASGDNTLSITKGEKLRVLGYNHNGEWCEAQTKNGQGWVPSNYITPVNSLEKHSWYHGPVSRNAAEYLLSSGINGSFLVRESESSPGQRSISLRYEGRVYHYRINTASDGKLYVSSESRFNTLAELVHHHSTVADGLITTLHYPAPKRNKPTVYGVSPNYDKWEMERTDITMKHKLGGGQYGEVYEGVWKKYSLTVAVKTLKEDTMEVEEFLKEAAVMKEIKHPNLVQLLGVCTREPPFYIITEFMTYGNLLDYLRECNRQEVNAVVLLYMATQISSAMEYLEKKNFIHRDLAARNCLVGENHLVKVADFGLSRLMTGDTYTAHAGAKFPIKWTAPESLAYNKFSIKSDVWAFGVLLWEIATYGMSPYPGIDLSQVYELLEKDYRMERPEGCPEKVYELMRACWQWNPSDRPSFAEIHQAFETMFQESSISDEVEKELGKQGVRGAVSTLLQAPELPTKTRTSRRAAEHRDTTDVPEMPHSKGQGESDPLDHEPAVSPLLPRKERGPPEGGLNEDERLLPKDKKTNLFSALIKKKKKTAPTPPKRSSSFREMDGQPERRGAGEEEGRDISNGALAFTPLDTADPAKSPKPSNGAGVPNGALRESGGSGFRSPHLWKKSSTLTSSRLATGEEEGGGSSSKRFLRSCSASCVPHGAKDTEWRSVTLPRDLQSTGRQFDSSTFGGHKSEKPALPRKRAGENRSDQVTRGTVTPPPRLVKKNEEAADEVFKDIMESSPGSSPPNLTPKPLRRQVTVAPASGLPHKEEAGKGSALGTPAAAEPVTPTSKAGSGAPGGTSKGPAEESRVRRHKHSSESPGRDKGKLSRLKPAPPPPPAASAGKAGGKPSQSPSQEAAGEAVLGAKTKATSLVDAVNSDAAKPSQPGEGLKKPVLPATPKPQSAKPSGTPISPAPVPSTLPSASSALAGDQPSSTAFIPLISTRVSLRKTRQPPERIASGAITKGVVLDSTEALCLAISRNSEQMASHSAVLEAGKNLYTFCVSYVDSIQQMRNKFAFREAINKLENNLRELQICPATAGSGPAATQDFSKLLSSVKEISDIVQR
Chain of UniProt P37023 (whole entry, looked up): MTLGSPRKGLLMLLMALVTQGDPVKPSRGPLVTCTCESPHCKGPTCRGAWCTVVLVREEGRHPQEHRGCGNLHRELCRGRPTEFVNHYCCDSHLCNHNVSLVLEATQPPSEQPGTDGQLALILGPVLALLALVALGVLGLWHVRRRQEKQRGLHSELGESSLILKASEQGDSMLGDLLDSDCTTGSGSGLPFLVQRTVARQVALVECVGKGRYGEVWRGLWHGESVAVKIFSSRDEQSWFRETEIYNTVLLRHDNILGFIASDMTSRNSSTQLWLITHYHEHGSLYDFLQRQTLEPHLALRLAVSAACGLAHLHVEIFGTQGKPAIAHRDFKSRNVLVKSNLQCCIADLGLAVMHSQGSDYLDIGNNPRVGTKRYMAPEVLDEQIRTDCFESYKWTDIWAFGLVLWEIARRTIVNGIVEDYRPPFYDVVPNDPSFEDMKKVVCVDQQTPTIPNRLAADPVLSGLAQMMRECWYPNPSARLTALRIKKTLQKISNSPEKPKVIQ
Chain of UniProt O14920 (whole entry, looked up): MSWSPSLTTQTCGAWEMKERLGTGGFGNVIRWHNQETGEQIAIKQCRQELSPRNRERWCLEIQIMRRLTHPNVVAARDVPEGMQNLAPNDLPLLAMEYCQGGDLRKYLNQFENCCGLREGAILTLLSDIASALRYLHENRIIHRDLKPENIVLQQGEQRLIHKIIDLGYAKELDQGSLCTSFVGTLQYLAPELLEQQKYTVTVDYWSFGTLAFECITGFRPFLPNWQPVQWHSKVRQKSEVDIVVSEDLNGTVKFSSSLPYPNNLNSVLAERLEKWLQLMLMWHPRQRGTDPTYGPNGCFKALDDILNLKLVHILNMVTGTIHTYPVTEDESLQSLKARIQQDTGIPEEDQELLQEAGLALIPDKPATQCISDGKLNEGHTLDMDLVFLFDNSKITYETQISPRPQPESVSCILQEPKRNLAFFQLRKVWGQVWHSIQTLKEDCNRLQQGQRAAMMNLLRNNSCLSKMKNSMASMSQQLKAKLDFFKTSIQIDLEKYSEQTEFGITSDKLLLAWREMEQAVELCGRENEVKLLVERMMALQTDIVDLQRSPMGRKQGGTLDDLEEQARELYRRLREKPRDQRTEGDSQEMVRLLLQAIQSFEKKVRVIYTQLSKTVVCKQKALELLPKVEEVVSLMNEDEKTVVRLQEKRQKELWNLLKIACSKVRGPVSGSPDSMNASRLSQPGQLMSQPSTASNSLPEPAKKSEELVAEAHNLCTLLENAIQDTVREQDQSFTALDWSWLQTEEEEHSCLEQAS
Chain of UniProt Q9UEE5 (whole entry, looked up): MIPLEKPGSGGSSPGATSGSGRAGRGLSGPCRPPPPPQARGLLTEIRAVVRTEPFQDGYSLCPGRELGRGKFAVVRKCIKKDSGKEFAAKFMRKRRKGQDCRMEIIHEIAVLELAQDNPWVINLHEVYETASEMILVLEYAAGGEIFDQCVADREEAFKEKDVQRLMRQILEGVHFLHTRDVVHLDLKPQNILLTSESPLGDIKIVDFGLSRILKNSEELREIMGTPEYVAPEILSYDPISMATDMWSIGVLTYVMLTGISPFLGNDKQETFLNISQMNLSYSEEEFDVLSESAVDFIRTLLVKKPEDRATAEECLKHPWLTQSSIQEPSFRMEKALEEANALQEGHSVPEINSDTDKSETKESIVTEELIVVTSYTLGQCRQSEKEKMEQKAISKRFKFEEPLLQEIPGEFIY

Block 1 — observed: enzyme activity; action: inhibitor; concentration: 0.5 µM; baseline: control
Target: Serine/threonine-protein kinase PAK 4 (PAK4, Homo sapiens, UniProt O96013)
Chain of UniProt O96013 (whole entry, looked up): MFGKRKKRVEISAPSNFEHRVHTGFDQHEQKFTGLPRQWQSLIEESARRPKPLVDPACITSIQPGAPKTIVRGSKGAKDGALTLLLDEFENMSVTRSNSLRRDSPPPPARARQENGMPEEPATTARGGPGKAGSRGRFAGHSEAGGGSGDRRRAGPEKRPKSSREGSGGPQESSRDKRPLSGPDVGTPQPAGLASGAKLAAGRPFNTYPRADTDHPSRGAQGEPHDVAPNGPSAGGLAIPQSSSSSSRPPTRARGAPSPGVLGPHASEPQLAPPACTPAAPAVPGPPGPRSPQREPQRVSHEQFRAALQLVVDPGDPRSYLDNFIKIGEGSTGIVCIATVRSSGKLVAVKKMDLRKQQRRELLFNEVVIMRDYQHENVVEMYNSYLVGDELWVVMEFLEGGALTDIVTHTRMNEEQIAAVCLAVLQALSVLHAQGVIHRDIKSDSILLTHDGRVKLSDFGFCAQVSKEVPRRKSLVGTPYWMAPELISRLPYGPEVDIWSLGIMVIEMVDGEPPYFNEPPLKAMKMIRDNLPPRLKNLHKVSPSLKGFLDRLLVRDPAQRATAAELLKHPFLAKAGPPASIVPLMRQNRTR
Compound | remaining activity
COc1cc2ncnc(Nc3ccc(O)c(Br)c3)c2cc1OC | 95.7%
COc1cc2c(cc1OC)-c1[nH]nc(Nc3cccc(F)c3)c1C2 | 89.9%
Cn1nc2c3c(cccc31)C(=O)c1ccccc1-2 | 90.4%
COc1cc2ncnc(Nc3cccc(Cl)c3)c2cc1OC | 76.5%
c1ccc(-c2cnc(Nc3ccc(OCCN4CCCC4)cc3)s2)cc1 | 106%
Cc1nc2cc3nc(-c4cccs4)cnc3cc2n1C | 126%
Ic1cccc(CSc2nnc(-c3ccncc3)o2)c1 | 83.6%
O=C(Nc1cccc(Nc2nccc(Nc3cccc(C(F)(F)F)c3)n2)c1)C1CC1 | 87.4%
CCN(CC)C(=O)c1ccc(Nc2nc(OCC3CCCCC3)c3[nH]cnc3n2)cc1 | 51.5%
Cc1cc2ncc(-c3ccccc3)nc2cc1C | 105%
N#Cc1c(NC(=O)c2cccc3ccccc23)sc2c1CCCC2 | 95.2%
CCN(CC)CCNC(=O)c1c(C)[nH]c(/C=C2\C(=O)Nc3ccc(Cl)cc32)c1C | 76.7%
O=C(NC(NC(=S)Nc1ccc(F)c([N+](=O)[O-])c1)C(Cl)(Cl)Cl)C(c1ccccc1)c1ccccc1 (centres unmarked) | 118%
O=C1C(Cl)=C(N2C(=O)CCC2=O)C(=O)c2ccccc21 | 114%
O=C1c2ccccc2-c2n[nH]c3cccc1c23 | 99.4%
CN([C@@H](Cc1ccc(OS(=O)(=O)c2cccc3cnccc23)cc1)C(=O)N1CCN(c2ccccc2)CC1)S(=O)(=O)c1cccc2cnccc12 | 94.6%
CCN(CC)CCNC(=O)c1c(C)[nH]c(/C=C2\C(=O)Nc3ccc(F)cc32)c1C | 80.9%
c1ccc(-c2[nH]ncc2-c2ccnc3ccccc23)nc1 | 76.9%
Cc1cn(-c2cc(NC(=O)c3ccc(C)c(Nc4nccc(-c5cccnc5)n4)c3)cc(C(F)(F)F)c2)cn1 | 88.9%
Nc1cccc(-c2cc3c(Oc4cccc(O)c4)ncnc3[nH]2)c1 | 99.8%
C[C@@H]1CCN(C(=O)CC#N)C[C@@H]1N(C)c1ncnc2[nH]ccc12 | 99.2%
CCOc1nc(NC(=O)Cc2cc(OC)ccc2OC)cc(N)c1C#N | 91.8%
CN(C)C[C@H]1CCn2c(c(C3=C(c4cn(C)c5ccccc45)C(=O)NC3=O)c3ccccc32)C1 | 104%
N#C/C(=C\c1ccc(O)c(O)c1)C(=O)NCc1ccccc1 | 111%
O=c1cc(-c2cccc3c2Sc2ccccc2S3)oc(N2CCOCC2)c1 | 116%

Block 2 — observed: binding; action: competitor; method: NanoBRET; cells: HEK293
SMILES: CC(=O)N1CCN(c2nc(OC[C@@H]3CCCN3C)nc3c2CCN(c2cccc4cccc(Cl)c24)C3)C[C@@H]1CC#N
KRAS G13D: GTPase KRas (KRAS, Homo sapiens, UniProt P01116, G13D)
KRAS Q61R: GTPase KRas (KRAS, Homo sapiens, UniProt P01116, Q61R)
target | setting | normalized BRET
KRAS G13D | 137 nM | 87% and 94.2% and 97.6%
KRAS G13D | 45.7 nM | 91.3% and 98% and 104%
KRAS G13D | 412 nM | 71.9% and 75.3% and 83.8%
KRAS Q61R | 137 nM | 102% and 95.3% and 107%
KRAS Q61R | 15.2 nM | 103% and 98.8%
GTPase KRas (KRAS, Homo sapiens, UniProt P01116, G12D) | 137 nM | 94% and 91.7% and 91.1%
KRAS G13D | 5.08 nM | 105% and 99.2% and 107%
KRAS G13D | 1.69 nM | 102% and 98.1%

Block 3 — method: competition with immobilised ligand; concentration: 1 µM
SMILES: CS(=O)(=O)NCC[C@H](NC(=O)c1cncc2c1cnn2-c1ccc(F)cc1)c1ccnc(S(C)(=O)=O)c1
target | test | remaining binding [%]
TLK2 (Homo sapiens, UniProt Q86UE8) | cell-free assay | 100
MAP3K12 (Homo sapiens, UniProt Q12852) | cell-free assay | 82
IKBKB (Homo sapiens, UniProt O14920) | cell-free assay | 89
RIOK1 (Homo sapiens, UniProt Q9BRS2) | cell-free assay | 85
COQ8A (Homo sapiens, UniProt Q8NI60) | cell-free assay | 95
MAPK8 (Homo sapiens, UniProt P45983) | cell-free assay | 80
DCLK1 (Homo sapiens, UniProt O15075) | cell-free assay | 94
Tyrosine-protein kinase ABL1, non-phosphorylated (ABL1, Homo sapiens, UniProt P00519, F317I) | binding | 85
PDGFRA (Homo sapiens, UniProt P16234) | cell-free assay | 100
ACVRL1 (Homo sapiens, UniProt P37023) | binding | 96
eIF-2-alpha kinase GCN2, C-terminal kinase domain (EIF2AK4, Homo sapiens, UniProt Q9P2K8, S808G) | cell-free assay | 100
STK32A (Homo sapiens, UniProt Q8WU08) | binding | 74
PIK3CA (Homo sapiens, UniProt P42336, I800L) | cell-free assay | 61
TRPM6 (Homo sapiens, UniProt Q9BX84) | cell-free assay | 100
STK17A (Homo sapiens, UniProt Q9UEE5) | cell-free assay | 100
ALK (Homo sapiens, UniProt Q9UM73, L1196M) | cell-free assay | 100
CDKL5 (Homo sapiens, UniProt O76039) | binding | 100

Block 4 — species: C57BL/6 CES1-/- mice, EL4 tumour; route: subcutaneous; dose: 0.3 mg/kg/day DON equivalent; time: 5 days
SMILES: CC(=O)N[C@@H](Cc1c[nH]c2ccccc12)C(=O)N[C@@H](CCC(=O)C=[N+]=[N-])C(=O)OC(C)C
test | system | setting | scale | metabolite peak intensity
UPLC-MS/MS, measured: ADP | EL4 tumour | – | – | 3.13e+06 a.u. and 5.72e+06 a.u. and 1.7e+06 a.u. and 2.28e+06 a.u. and 7.58e+06 a.u. and 7.49e+06 a.u.
UPLC-MS/MS, measured: hypoxanthine | EL4, tumour | normalised to tissue mass | higher = more metabolite | 3.41e+07 a.u. and 3.7e+07 a.u. and 4.11e+07 a.u. and 3.44e+07 a.u. and 3.3e+07 a.u. and 3.31e+07 a.u.
LC-MS/MS metabolomics, measured: phenylacetylglycine | EL4 tumour | – | higher = more metabolite | 354000 a.u. and 967000 a.u. and 254000 a.u. and 518000 a.u. and 334000 a.u. and 348000 a.u.
LC-MS/MS metabolomics, measured: 3-phenylpropionate | EL4 tumour | normalised to tissue mass | higher = more metabolite | 48900 a.u. and 32600 a.u. and 47500 a.u. and 46100 a.u. and 23700 a.u.
LC-MS/MS metabolomics, measured: 2-hydroxy-4-(methylthio)butanoic acid | EL4 tumour | normalised to tissue mass | higher = more metabolite | 791000 a.u. and 1.93e+06 a.u. and 1.54e+06 a.u. and 2.63e+06 a.u. and 1.26e+06 a.u. and 1.22e+06 a.u.
UPLC-MS/MS, measured: FGAR | EL4 tumour | – | – | 2.01e+07 a.u. and 4.59e+07 a.u. and 6e+07 a.u. and 1.26e+08 a.u. and 1.14e+08 a.u. and 5.11e+07 a.u.

Some of these lines once more (block 3):
target | test | remaining binding [%]
CDKL5 (Homo sapiens, UniProt O76039) | binding | 100
STK32A (Homo sapiens, UniProt Q8WU08) | binding | 74
ACVRL1 (Homo sapiens, UniProt P37023) | binding | 96
ALK (Homo sapiens, UniProt Q9UM73, L1196M) | cell-free assay | 100
DCLK1 (Homo sapiens, UniProt O15075) | cell-free assay | 94
IKBKB (Homo sapiens, UniProt O14920) | cell-free assay | 89
